Results of several laboratories.
Protocols differ between the studies behind these lines. ± marks the error that the study gave.
Matrix: plasma

| Structure (SMILES) | species | route | dose | time | notes | quantity | result |
| --- | --- | --- | --- | --- | --- | --- | --- |
| NC(=O)c1cnc2[nH]ccc2c1NC1C2CC3CC1CC(OS(=O)(=O)O)(C3)C2 (stereo not drawn) | Japanese adults, mild hepatic impairment | oral | 150 mg single dose | – | – | Tmax (median) | 1.75 h |
| Cc1ccccc1-c1cc(N2CCNCC2)ncc1N(C)C(=O)C(C)(C)c1cc(C(F)(F)F)cc(C(F)(F)F)c1 | healthy volunteers | oral | dose not given | – | netupitant-palonosetron fixed-dose combination | Tmax | 9.85 h |
| Cn1cc(C(N)=O)c(NC2C3CC4CC2CC(OS(=O)(=O)O)(C4)C3)c2ccnc1-2 (stereo not drawn) | Japanese adults, normal hepatic function | oral | 150 mg single dose | – | – | Tmax (median) | 3 h |
| COc1cc(C)c(Cc2ccc(O)cc2)cc1[C@@H]1S[C@H](CO)[C@@H](O)[C@H](O)[C@H]1O | Japanese T2DM patients | – | 5 mg luseogliflozin | day 7 | once daily | Tmax | 2 ± 1.12 h |
| CC(=O)N[C@H](CC(=O)O)C(=O)N[C@H](Cc1c[nH]c2ccccc12)C(=O)N[C@H](Cc1ccccc1)C(=O)N[C@H](CCCCN)C(=O)N[C@H](C)C(=O)N[C@H](Cc1ccccc1)C(=O)N[C@H](Cc1ccc(O)cc1)C(=O)N[C@H](CC(=O)O)C(=O)N[C@H](CCCCN)C(=O)N[C@@H](C(=O)N[C@H](C)C(=O)N[C@H](CCC(=O)O)C(=O)N[C@H](CCCCN)C(=O)N[C@H](Cc1ccccc1)C(=O)N[C@H](CCCCN)C(=O)N[C@H](CCC(=O)O)C(=O)N[C@H](C)C(=O)N[C@H](Cc1ccccc1)C(N)=O)C(C)C | statin-treated high-risk CHD patients | oral | 100 mg daily | day 13 | mean, detected subjects | Tmax | 2.25 h |
| CC(C)(Sc1cc[n+]([O-])cc1-c1ccc(C#N)c2ccccc12)C(=O)OC1OC(C(=O)O)C(O)C(O)C1O (stereo not drawn) | – | oral | 15 mg | – | mild renal impairment, fasted | Tmax | 3 h |
| Cc1ccccc1-c1cc(N2CC[N+](C)([O-])CC2)ncc1N(C)C(=O)C(C)(C)c1cc(C(F)(F)F)cc(C(F)(F)F)c1 | healthy volunteers | oral | dose not given | – | – | Tmax | 4.64 to 5.57 h |
| Cn1cc(C(N)=O)c(NC2C3CC4CC2CC(O)(C4)C3)c2ccnc1-2 (stereo not drawn) | Japanese adults, mild hepatic impairment | oral | 150 mg single dose | – | – | Tmax (median) | 4 h |
| CC(C)(Sc1ccncc1-c1ccc(C#N)c2ccccc12)C(=O)OC1OC(C(=O)O)C(O)C(O)C1O (stereo not drawn) | – | oral | 15 mg | – | normal renal function, fasted | Tmax | 2.5 h |

For quick reference, copied from above:
| Structure (SMILES) | species | route | dose | time | notes | quantity | result |
| --- | --- | --- | --- | --- | --- | --- | --- |
| NC(=O)c1cnc2[nH]ccc2c1NC1C2CC3CC1CC(OS(=O)(=O)O)(C3)C2 (stereo not drawn) | Japanese adults, mild hepatic impairment | oral | 150 mg single dose | – | – | Tmax (median) | 1.75 h |
